Results collected from several papers.
Compare with care: the assays were run in different laboratories.
Organism: Trypanosoma brucei

COC(=O)c1[nH]c(C(=O)OC)c2c1-c1c[nH]c3ccc(Cl)c(c13)[C@@]21C=Nc2ccc(Cl)cc21  EC50 (parasite growth, ATP luminescence; 48 h): 11000 nM
COc1cc(O)c(-c2ccc(OC)c3c(O)cc(C)c(-c4cc(-c5c(O)cc(OC)c6c5C[C@@H](C)N[C@@H]6C)c5cc(C)cc(OC)c5c4O)c23)c2c1[C@@H](C)N(C)[C@H](C)C2  IC50 (parasite growth; RHODESIENSE STIB900; trypomastigote): 211 nM
O=C(Nc1ccc2c(c1)CN(c1ccc(Br)cc1)C2=O)N1CCN(c2ccc(F)cc2)CC1  IC50 (parasite growth, resazurin; RHODESIENSE): 50 nM
COc1cc(O)c(-c2cc(-c3c(C)cc(O)c4c(OC)ccc(-c5c(O)cc(OC)c6c5C[C@@H](C)N(C)[C@@H]6C)c34)c(O)c3c(OC)cc(C)cc23)c2c1[C@@H](C)N(C)[C@H](C)C2  IC50 (parasite growth; RHODESIENSE STIB900; trypomastigote): 476 nM
CC(C)[C@@H](C)Nc1c(-c2c(F)cc(OCCCN(C)C)cc2F)c(Cl)nc2ncnn12  EC50 (parasite growth, SYBR Green; 72 h): 72.3 nM
O=C(Nc1ccc2c(c1)CN(c1ccc(F)c(F)c1)C2=O)N1CCN(c2ccc(F)cc2)CC1  IC50 (parasite growth, resazurin; RHODESIENSE): 2000 nM
CC(C)(C)OC(=O)/C=C/c1ccc(O)c(C(=O)C(CCC(=O)OC(C)(C)C)CCC(=O)OC(C)(C)C)c1  IC50 (parasite growth; RHODESIENSE STIB900; 70 h, trypomastigote): 2300 nM
O=C(Nc1cc2nc(-c3ccc(F)c(F)c3)c(CN3CCN(c4ccc(F)cc4)CC3)n2cn1)N1CC[C@H](F)C1  IC50 (Squib 427, suramin-sensitive; 72 h): 950 nM
CC(C)(C)OC(=O)/C=C/c1ccc(O)c(O)c1  IC50 (parasite growth; RHODESIENSE STIB900; 70 h, trypomastigote): 1200 nM
Cc1ccc(N2Cc3cc(NC(=O)N4CCN(c5cccc(C(F)(F)F)c5)CC4)ccc3C2=O)cc1  IC50 (parasite growth, resazurin; RHODESIENSE): 40 nM
CC(=O)N[C@@H]1[C@@H](OC(C)=O)[C@H](OC(C)=O)[C@@H](COC(C)=O)O[C@H]1[Se][Se][C@@H]1O[C@H](COC(C)=O)[C@@H](OC(C)=O)[C@H](OC(C)=O)[C@H]1NC(C)=O  inhibition (parasite growth, flow cytometry; 5 µM, 24 h): 37 to 97%
Cc1ccc(N2Cc3cc(NC(=O)N4CCN(c5ccc(F)cc5)CC4)ccc3C2=O)cc1  IC50 (parasite growth, resazurin; RHODESIENSE): 100 nM
Cc1ccc2c(c1Br)C(O)(CC(=O)c1ccc3c(c1)OCO3)C(=O)N2 (stereo not shown)  sugar nucleotide levels (LC-MS/MS; wild type; 100 µM, 3 h; baseline: untreated): no effect
O=C(Nc1ccc2c(c1)CN(c1ccc(Cl)c(Cl)c1)C2=O)N1CCN(c2ccc(Cl)cc2)CC1  IC50 (parasite growth, resazurin; RHODESIENSE): 400 nM
CC(=O)OC[C@H]1O[C@@H]([Se][Se][C@@H]2O[C@H](COC(C)=O)[C@@H](OC(C)=O)[C@H](OC(C)=O)[C@H]2OC(C)=O)[C@H](OC(C)=O)[C@@H](OC(C)=O)[C@@H]1OC(C)=O  inhibition (parasite growth, flow cytometry; 5 µM, 24 h): 97%
CC(=O)NCCCOc1cc(F)c(-c2c(Cl)nc3ncnn3c2N[C@@H](C)C(F)(F)F)c(F)c1  EC50 (parasite growth, SYBR Green; 72 h): 138 nM

A few entries again:
O=C(Nc1ccc2c(c1)CN(c1ccc(Br)cc1)C2=O)N1CCN(c2ccc(F)cc2)CC1  IC50 (parasite growth, resazurin; RHODESIENSE): 50 nM
COc1cc(O)c(-c2cc(-c3c(C)cc(O)c4c(OC)ccc(-c5c(O)cc(OC)c6c5C[C@@H](C)N(C)[C@@H]6C)c34)c(O)c3c(OC)cc(C)cc23)c2c1[C@@H](C)N(C)[C@H](C)C2  IC50 (parasite growth; RHODESIENSE STIB900; trypomastigote): 476 nM
